Measurements pooled from the literature.
Each numbered part is a random draw from the data of one study; scales do not carry over between parts. Changes are numbered by the printed parent chain.

Set 1
Target: CCND1, cyclin fold, Cln2 fusion (human)
Method: yeast growth competition, sequencing
Sample: yeast
Notes: weak parent motif
Baseline: not given
Reading: higher = stronger binding
Starting sequence: NPAT docking peptide (human); PCHRRVLCFDSTT; partner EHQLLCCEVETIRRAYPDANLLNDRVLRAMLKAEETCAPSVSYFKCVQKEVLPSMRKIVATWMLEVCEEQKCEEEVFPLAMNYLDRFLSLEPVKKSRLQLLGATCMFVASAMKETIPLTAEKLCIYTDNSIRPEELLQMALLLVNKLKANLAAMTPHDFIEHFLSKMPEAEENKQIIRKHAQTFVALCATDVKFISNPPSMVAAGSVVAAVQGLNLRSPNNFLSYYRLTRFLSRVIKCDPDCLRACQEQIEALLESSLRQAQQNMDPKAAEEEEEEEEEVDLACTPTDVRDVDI
Substitution | normalised enrichment score
PCHRKVLCLDSTT [R5K F9L] | -0.189
PCHARVLCFDSTT [R4A] | 0.597
PCHRRVLCFDSAT [T12A] | -0.00365
PCHRRVLCADSTT [F9A] | -0.496
PCHRAVACFDSTT [R5A L7A] | -0.0886
PCHRRVLCFASTT [D10A] | -0.156
PCHRRVLCLDSTT [F9L] | -0.308
PAHRRVLCFDSTT [C2A] | -0.0635
PCHRRALCFDSTT [V6A] | 0.109
PCHRRVACFDSTT [L7A] | -0.471

Set 2
Target: Prothrombin, mature alpha-thrombin (F2, Homo sapiens, UniProt P00734)
Method: aptamer microarray, sandwich
Molecule type: DNA with 2'F-ANA
Sample: in vitro
Concentration: 200 nM
Notes: whole 15-mer aptamer, many near background
Added: Cy3 exosite-II aptamer, 400 nM
Reading: higher = stronger binding
Strand: GGTTGGTGTGGTTGG
Modification | mean fluorescence intensity
2'F-ANA at 1 2 4 5 9 11 12 15 | 93.5 a.u.
2'F-ANA at 1 2 3 4 9 12 13 14 15 | 205 a.u.
2'F-ANA at 5 6 8 9 11 12 14 | 52.3 a.u.
2'F-ANA at 1 5 6 11 13 14 15 | 47 a.u.
2'F-ANA at 1 2 5 6 7 8 11 13 14 | 118 a.u.
2'F-ANA at 1 3 4 7 9 11 13 14 15 | 70.9 a.u.
2'F-ANA at 3 4 6 8 11 13 14 | 236 a.u.
2'F-ANA at 5 6 8 9 14 15 | 69.2 a.u.
2'F-ANA at 1 2 5 6 8 10 11 12 13 14 | 56 a.u.
2'F-ANA at 1 2 6 7 14 15 | 56.5 a.u.
2'F-ANA at 2 3 5 11 13 | 78.2 a.u.
2'F-ANA at 1 4 5 6 7 10 12 14 15 | 47.4 a.u.
2'F-ANA at 2 4 8 9 11 12 14 15 | 120 a.u.
2'F-ANA at 1 2 5 6 7 9 10 14 15 | 49.3 a.u.
2'F-ANA at 1 2 3 4 8 9 10 12 14 | 53.8 a.u.
2'F-ANA at 2 8 10 11 15 | 211 a.u.
2'F-ANA at 1 2 3 6 7 9 11 13 14 15 | 63.3 a.u.
2'F-ANA at 2 7 12 13 15 | 631 a.u.
2'F-ANA at 2 3 6 8 11 12 13 15 | 761 a.u.
2'F-ANA at 2 3 4 8 9 11 13 | 439 a.u.
2'F-ANA at 1 2 3 4 5 6 7 9 12 13 15 | 71.5 a.u.
2'F-ANA at 2 5 7 | 95.5 a.u.
2'F-ANA at 2 5 8 11 13 14 | 53.4 a.u.
2'F-ANA at 1 2 3 4 6 7 10 | 77.4 a.u.
2'F-ANA at 1 2 3 7 8 9 10 11 12 13 14 15 | 67.1 a.u.

Set 3
Target: ABI1, truncated, D143A, DHFR fusion (Arabidopsis thaliana)
Method: DHFR PCA, deep sequencing
Sample: yeast
Notes: methotrexate growth selection, single substitutions
Added: (+)-ABA 2500 µM
Baseline: wild-type fitted maximum
Reading: higher = stronger binding
Starting sequence: PYL1, truncated, DHFR fusion (Arabidopsis thaliana); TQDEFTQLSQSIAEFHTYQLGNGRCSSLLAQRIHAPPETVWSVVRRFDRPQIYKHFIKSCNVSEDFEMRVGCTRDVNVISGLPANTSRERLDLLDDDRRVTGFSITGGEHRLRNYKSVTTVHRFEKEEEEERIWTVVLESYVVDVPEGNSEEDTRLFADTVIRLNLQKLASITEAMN; partner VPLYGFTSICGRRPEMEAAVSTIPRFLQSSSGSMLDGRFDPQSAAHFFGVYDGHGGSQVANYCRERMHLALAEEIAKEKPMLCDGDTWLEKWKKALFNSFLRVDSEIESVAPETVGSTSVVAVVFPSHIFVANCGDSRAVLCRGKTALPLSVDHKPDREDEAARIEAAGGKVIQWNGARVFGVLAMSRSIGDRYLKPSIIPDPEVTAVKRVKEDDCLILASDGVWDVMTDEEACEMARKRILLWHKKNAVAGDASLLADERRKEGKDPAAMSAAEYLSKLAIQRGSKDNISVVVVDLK
Substitution | relative binding score
N177I | 90.6%
A158I | 94.8%
S104K | 95.6%
R98D | 96.4%
L164I | 96.9%
K126L | 99.8%
T154F | 41.2%
V143F | 66.6%
L93C | 108%
Y53E | 10%
S140H | 55.5%
V43T | 95.6%
V76L | 93.5%
N61F | 99%
S11C | 100%
I133G | 111%
E174P | 91%
E4Q | 94.7%
T160W | 88.5%

Set 4
Target: RNA binding protein fox-1 homolog 2, RRM domain, GST-SBP tag (RBFOX2, Homo sapiens, UniProt O43251-10, residues 100-194)
Method: RNA Bind-n-Seq
Molecule type: RNA
Sample: in vitro
Concentration: 365 nM
Notes: natural RNA segment, single round, ends assumed
Baseline: no-protein control
Reading: higher = stronger binding
All sequences stand within: GGGAGUUCUACAGUCCGACGAUC … UGGAAUUCUCGGGUGCCAA
Construct (chain): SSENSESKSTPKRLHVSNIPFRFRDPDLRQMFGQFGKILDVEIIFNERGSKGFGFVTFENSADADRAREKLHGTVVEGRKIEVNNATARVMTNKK
Strand | RBNS enrichment (R)
AAAUACAAAAAUUAGCCAAGUGUGAUGGCACAUACCUGUAAUCCCAGCUACUUGGAAUUGGAAAUCGCCUGAACCCAGGAGGCGGAGGUUGCAGGGAGGGAGACUGCACC | 0.766
GGCCCCACCGCCAUCGUCAGUCAAAUCAGUGCACCUCUCAAUCUGCCUCGCAGUGACUUCGCAGCACUGAGUGGCAUCCACCAGGAAUCAGGCUGGAGAAAUGGGAGCCC | 0.256
CAGUGUGACGAAAGGCGGCCUGUACUGCCCUAAGAAAUCUGAUGUAAAGUUUUUGUAUAUUUCAUAUUCCACCCACCAGAUUCUGCUUCCAUUUAAUAAAACCCUUUUUG | 0.756
CCACCCGGAGCGCGUGCUGUUGAUGAUCUGAUCUCUCGCCUGGACCCCUCAUCCCUGCCCUGCCACUUUGCAUGAUUCAAGUUCGACCUGGCCAUGCAUUGCCCAAGCGU | 0.651
GUGUUCUCUUUUGUUAUUUUACUUAGGGUAUAUGGAUAUUUUGCAAUAAUUUUAAUGAUUCUUAAGCUAUUUGAAGGAAAGAAUAUGGAUUUCUCAUGUCUUGAGGUUUU | 1.24
AACAGACUGUGUAGGAAAAAUCAGGAUUAAAGAGUGCUGCCUUUAUGGCUCCUUCUUCAGAAUAGGUGCAGACCCCUCCCCGUGCCCGUUCCCUGCCACCCGGGGUAAGG | 0.553
ACCUACCCCACAGCAGGUAGCCCAGCAGCAGUGAAGAUGCAGACUGAUACCACCUCCACCGCUGAGCAGUGACCUUCCUCACUUUCUCUUGUCCCAGCUUCUCCCCUGGG | 0.387
GAAAACAGUGGCAAGGGCUGUUCUGUUUUCUGGUACCUGAGUGAAACUCAGAAGAAAAGCAGGCUUAGCUAAGAGAUUUUCACUAUUAACCUGUUUUUAUUAGAUCAGCG | 0.479
ACAGACACACAUCCCUUCCCGCCUCCCCCCUGCCUUCAGUAGGAUCUGGCUCCGUGGCUGGAGGACCAACCCCUAUAGUGGGAAUGCAGAGCUUAACGUGUACUGCUUGU | 0.435
AGUUCUCUUUGGAAAAAAACUACCACUGUGGUCUUAAAAGGGAACAAAAUAUACCAUAGGCUAAAACUAAGGCUUUCACUCUAGAAUGCAAAGCUGUUUUGCAGCUGUUU | 0.29
UGAAGGACAGUCCCUCAGCCUUUCCAUUGGUUCCUUUGUGUUCAGUGCACCCAGCCUUUGAACAGAGCCUAGGGUCUGUAUGCCAUGACACUGGAAGUCAUAGAAAUUUC | 0.349
AGUGCUUUUUCUUUUCUUCUGUUCAAAGAGGUCAUAUUACAAGGUUUUUUGAAAUUGUGAAUUCUAAAAAACAAAAAACAAACAAAAAAAUGUUGUAAAUAUAAUUCCAU | 1.02

Set 5
Target: HLF, bZIP domain (human)
Method: DHFR protein complementation
Sample: yeast
Notes: single substitutions, most at no-binding floor
Baseline: wild-type JUN-FOS pair
Reading: higher = stronger binding
Starting sequence: JUN, bZIP domain (human); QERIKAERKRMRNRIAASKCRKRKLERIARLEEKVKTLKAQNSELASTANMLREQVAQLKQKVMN; partner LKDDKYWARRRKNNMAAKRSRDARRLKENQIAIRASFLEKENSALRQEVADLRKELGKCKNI
Substitution | binding fitness [natural log]
V56L | -1.44
E44G | -1.4
E44A | -1.42
E33H | -1.36
T37N | -1.23
L45H | -1.5
R30L | -1.44
K39P | -1.54
L45D | -1.5
A40R | -1.36
K34A | -1.45
K36S | -1.32
A40F | -1.43
Q41T | -1.45
A29T | -1.45
T37I | -1.41

Set 6
Target: Histone acetyltransferase KAT6A, winged helix 1, GST fusion (KAT6A, Homo sapiens, UniProt Q92794, residues 1-85)
Method: protein binding microarray
Molecule type: double-stranded DNA, one strand shown
Sample: in vitro
Concentration: not given
Notes: 8-mer, flanks averaged, mean of 2 arrays, mostly near background
Baseline: not given
Reading: higher = stronger binding
Construct (chain): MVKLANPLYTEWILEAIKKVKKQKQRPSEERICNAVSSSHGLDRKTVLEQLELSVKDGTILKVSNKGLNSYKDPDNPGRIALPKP
Strand | E-score
ATACCCGA | 0.142
CGCTTGTC | 0.0817
CGGGCTCA | 0.192
ATGGAATC | -0.0218
TCTACACA | -0.254
GCTCGACA | -0.116
AGGGCCCG | 0.233
GAACTGGA | -0.0507
ACTACACA | -0.0825
CTTTCTAA | -0.104
GGCTTGAA | -0.0826
CTGCCGCC | 0.401
AACTTATG | -0.312
AGATCATA | -0.109
AGCTCGTG | -0.118
ATTATCCC | -0.191
ATGCTAAT | -0.172
AGATGGCC | -0.0468
